Measured values gathered from unrelated publications.
Parts stem from different laboratories: compare values within a part only. ± gives the spread as reported.
Sequence of UniProt P03692 (whole entry, looked up): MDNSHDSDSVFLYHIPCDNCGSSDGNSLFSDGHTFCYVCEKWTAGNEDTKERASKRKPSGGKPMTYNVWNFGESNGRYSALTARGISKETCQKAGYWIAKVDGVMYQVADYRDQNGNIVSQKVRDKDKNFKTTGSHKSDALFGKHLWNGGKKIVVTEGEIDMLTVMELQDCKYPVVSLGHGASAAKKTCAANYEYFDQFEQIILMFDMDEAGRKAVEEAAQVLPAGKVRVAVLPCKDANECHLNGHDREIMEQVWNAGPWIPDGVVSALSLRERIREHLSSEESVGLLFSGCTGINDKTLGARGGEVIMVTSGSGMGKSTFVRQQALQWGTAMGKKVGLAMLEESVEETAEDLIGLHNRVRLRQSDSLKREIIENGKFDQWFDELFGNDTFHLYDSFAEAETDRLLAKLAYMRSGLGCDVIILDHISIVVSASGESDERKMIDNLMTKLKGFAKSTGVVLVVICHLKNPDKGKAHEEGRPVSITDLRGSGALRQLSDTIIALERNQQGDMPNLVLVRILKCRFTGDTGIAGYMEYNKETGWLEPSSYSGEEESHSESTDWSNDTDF

Block 1
Target: icaR full length assumed (Staphylococcus epidermidis, UniProt Q5HKQ1)
Technique: EMSA
Molecule type: double-stranded DNA, one strand shown
All molecules: dsDNA
Target sequence (chain): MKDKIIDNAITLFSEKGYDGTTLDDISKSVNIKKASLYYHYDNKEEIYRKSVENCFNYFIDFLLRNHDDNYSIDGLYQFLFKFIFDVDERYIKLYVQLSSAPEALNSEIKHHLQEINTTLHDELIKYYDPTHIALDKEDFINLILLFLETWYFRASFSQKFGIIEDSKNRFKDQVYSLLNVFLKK
Strand | binding
TATGCTTTACAACCTAACTAACGAAAGG | no binding
CTTTACAACCTAACTAACGAAAGGTAGG | binds
TTCACCTACCTTTCGAAAGGTAGGTGAA | binds
AGCATATGCTTTACAACCTAACTAACGA | no binding
CACCTACCTTTCGAAAGGTAGGTG | binds

Further values, each from its own experiment
mwoIR full length assumed S310E: mwoIR full length assumed S310E (Methanothermobacter wolfeii, UniProt O59646)
Sequence of UniProt O59646 (whole entry, unmodified, looked up): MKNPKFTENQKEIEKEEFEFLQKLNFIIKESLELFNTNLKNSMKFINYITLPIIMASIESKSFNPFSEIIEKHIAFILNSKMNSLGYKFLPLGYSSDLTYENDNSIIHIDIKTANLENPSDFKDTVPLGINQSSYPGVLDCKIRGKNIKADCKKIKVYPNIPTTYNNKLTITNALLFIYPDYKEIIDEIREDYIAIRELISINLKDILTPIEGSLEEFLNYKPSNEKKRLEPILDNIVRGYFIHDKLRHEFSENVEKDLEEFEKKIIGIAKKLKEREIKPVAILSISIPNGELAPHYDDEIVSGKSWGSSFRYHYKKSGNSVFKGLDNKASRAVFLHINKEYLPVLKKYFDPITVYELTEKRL
Strand | target | assay | test system | setting | measurement | value
GACAGTGCTATCTCAGCGACAGT (dsDNA) | mwoIR full length assumed S310E | filter binding | double-stranded DNA, one strand shown | with: Ca2+ 10 mM | Kd | 46 ± 4.4 nM
CGTAATCTGCAGGCATGGTCAATTT (ssDNA) | gene 4 protein zinc-binding domain, 1-59 (Escherichia phage T7, UniProt P03692) | SPR | single-stranded DNA | with: ATP 0.2 mM, CTP 0.2 mM | binding | no binding
GACAGTGCAATCTCTGCGACAGT (dsDNA) | mwoIR full length assumed S310E | filter binding | double-stranded DNA, one strand shown | with: Ca2+ 10 mM | Kd | 29.7 ± 13.1 nM
CGTAATCTGCAGGCATGGTGAATTT (ssDNA) | gene 4 protein primase domain, 1-271 (Escherichia phage T7, UniProt P03692) | SPR | single-stranded DNA | with: preformed ACCA RNA | binding | binds
GACAGTGCCATCTCGGCGACAGT (dsDNA) | mwoIR full length assumed S310R (Methanothermobacter wolfeii, UniProt O59646) | filter binding | double-stranded DNA, one strand shown | with: Ca2+ 10 mM | Kd | 0.305 ± 0.0566 nM
ATAATTAACTAAACTTAATTAA (dsDNA) | Manganese transport regulator 1-215 (Streptococcus pyogenes, UniProt A0A0H2UTK0) | fluorescence polarization | double-stranded DNA, one strand shown | stoichiometry titration | binding | binds
GACAGTGCGATCTCCGCGACAGT (dsDNA) | mwoIR full length assumed (Methanothermobacter wolfeii, UniProt O59646) | filter binding | double-stranded DNA, one strand shown | with: Ca2+ 10 mM | Kd | 0.00734 ± 0.00166 nM

Repeated from above (further values, each from its own experiment):
Strand | target | assay | test system | setting | measurement | value
GACAGTGCAATCTCTGCGACAGT (dsDNA) | mwoIR full length assumed S310E | filter binding | double-stranded DNA, one strand shown | with: Ca2+ 10 mM | Kd | 29.7 ± 13.1 nM
